{"data": "Measured values of several laboratories", "note": "A part holds a random share of what one study measured.", "chain of UniProt P42336 (whole entry, unmodified, looked up)": "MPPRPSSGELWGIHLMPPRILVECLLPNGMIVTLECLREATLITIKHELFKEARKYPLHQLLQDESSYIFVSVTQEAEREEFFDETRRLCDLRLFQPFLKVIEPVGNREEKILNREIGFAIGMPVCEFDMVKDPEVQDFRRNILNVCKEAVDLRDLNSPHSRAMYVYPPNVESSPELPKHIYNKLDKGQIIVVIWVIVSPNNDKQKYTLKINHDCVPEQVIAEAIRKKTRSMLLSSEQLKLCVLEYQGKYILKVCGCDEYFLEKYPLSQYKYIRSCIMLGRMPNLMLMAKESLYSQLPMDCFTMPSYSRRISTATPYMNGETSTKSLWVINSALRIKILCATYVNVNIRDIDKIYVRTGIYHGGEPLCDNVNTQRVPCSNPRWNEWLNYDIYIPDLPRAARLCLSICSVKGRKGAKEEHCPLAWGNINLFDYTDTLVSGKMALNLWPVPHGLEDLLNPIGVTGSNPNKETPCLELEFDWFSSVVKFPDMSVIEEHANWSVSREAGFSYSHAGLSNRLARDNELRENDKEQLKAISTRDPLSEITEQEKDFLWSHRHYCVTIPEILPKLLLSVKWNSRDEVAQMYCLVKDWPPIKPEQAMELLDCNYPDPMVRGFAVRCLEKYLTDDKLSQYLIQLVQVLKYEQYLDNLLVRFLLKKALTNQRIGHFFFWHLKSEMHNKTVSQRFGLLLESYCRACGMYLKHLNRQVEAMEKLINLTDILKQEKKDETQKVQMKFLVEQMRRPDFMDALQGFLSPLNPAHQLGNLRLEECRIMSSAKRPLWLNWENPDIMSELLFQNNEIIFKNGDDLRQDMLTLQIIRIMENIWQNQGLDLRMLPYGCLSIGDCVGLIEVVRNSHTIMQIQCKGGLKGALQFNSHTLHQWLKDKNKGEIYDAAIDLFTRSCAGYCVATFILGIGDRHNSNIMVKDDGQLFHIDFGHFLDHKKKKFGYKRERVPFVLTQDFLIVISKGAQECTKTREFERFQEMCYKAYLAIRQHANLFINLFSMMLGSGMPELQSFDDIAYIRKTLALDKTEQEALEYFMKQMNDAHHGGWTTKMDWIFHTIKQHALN", "chain of UniProt P07948 (whole entry, looked up)": "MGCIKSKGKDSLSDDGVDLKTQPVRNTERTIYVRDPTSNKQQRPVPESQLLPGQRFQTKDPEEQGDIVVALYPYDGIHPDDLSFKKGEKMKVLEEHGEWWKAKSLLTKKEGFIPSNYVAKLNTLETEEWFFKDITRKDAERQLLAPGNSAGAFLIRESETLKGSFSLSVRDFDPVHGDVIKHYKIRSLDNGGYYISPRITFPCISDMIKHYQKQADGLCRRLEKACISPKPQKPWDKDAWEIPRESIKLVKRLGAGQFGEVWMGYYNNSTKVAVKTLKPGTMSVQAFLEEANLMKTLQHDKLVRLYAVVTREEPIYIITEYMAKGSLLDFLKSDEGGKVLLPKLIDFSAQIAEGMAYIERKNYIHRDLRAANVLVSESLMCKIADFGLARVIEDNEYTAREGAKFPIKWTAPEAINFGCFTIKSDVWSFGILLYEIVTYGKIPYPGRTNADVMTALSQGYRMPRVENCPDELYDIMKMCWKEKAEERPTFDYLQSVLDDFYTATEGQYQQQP", "chain of UniProt Q06418 (whole entry, looked up)": "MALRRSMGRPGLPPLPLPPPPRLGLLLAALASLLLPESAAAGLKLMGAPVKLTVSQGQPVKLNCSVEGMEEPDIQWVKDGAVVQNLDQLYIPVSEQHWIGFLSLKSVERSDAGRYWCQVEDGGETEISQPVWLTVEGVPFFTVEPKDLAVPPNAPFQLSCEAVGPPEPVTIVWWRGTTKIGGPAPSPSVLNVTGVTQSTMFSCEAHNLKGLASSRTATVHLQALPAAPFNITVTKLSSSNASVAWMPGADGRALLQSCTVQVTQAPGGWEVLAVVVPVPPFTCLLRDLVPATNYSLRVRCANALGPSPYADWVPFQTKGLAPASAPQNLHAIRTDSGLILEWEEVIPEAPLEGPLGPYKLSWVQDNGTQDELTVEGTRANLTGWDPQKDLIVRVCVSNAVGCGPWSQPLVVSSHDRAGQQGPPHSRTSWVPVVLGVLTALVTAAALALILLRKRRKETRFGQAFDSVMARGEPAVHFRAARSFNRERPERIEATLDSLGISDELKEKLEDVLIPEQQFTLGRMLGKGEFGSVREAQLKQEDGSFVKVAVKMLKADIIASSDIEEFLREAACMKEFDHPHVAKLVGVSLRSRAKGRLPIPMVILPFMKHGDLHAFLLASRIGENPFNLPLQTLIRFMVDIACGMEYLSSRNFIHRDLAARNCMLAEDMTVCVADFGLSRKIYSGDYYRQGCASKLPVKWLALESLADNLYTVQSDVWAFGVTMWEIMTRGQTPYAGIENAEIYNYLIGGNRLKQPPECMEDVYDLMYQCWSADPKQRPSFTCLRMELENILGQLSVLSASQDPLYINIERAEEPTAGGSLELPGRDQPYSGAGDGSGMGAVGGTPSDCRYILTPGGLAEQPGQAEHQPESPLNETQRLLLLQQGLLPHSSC", "chain of UniProt P27448 (whole entry, looked up)": "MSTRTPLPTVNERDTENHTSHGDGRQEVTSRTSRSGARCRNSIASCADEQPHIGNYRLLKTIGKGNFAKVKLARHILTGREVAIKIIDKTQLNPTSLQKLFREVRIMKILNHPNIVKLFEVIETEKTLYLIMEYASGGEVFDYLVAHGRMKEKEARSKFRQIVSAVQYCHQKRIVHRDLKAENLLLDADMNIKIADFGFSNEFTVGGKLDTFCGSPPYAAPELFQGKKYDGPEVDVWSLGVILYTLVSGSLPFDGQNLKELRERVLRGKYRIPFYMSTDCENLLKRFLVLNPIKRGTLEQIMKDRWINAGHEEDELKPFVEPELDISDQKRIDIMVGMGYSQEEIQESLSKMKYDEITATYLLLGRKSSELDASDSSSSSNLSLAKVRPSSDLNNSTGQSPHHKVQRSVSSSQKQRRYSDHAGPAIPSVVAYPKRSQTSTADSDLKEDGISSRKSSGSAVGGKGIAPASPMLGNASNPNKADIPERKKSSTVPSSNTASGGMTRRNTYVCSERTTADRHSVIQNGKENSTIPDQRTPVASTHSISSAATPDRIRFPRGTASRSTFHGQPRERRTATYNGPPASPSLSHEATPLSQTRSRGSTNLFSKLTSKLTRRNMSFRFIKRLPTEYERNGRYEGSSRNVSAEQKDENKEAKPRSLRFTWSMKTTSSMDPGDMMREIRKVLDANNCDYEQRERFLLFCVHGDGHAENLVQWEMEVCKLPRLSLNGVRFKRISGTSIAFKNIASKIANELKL", "chain of UniProt P04629 (whole entry, looked up)": "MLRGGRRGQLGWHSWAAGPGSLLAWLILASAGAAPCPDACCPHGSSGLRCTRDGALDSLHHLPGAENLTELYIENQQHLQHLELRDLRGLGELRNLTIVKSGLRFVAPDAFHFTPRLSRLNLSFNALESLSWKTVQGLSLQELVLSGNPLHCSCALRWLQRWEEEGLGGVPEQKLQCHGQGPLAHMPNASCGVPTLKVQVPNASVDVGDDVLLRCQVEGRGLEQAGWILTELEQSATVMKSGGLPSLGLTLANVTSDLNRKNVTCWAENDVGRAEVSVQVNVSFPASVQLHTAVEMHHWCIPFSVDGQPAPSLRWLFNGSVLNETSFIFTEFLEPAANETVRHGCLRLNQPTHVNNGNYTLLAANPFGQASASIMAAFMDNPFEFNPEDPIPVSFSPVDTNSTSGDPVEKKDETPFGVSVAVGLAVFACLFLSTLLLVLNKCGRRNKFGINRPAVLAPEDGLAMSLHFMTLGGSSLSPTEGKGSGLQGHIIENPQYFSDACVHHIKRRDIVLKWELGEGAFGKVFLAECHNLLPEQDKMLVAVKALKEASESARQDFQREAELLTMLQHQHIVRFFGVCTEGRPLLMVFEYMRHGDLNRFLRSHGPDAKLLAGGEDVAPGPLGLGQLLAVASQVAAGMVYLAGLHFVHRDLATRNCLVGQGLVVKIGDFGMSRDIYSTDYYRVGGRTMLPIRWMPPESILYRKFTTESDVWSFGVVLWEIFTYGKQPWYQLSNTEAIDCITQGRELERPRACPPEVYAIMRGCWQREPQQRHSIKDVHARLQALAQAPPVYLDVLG", "chain of UniProt Q9Y572 (whole entry, looked up)": "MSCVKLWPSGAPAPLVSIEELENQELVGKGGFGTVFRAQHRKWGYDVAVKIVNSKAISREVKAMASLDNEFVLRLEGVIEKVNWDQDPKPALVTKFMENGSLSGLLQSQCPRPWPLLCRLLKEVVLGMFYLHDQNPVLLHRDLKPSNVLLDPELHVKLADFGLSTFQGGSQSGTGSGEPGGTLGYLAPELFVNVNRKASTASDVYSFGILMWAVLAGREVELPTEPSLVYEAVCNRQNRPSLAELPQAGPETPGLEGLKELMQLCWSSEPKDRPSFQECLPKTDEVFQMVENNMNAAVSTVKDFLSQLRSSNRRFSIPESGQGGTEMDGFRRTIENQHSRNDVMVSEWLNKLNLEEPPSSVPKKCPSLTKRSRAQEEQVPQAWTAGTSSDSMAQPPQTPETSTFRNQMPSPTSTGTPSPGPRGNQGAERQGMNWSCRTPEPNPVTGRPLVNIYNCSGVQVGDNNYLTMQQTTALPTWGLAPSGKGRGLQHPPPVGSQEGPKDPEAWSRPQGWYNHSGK"}
{"data": "Set 1", "organism": "Sarcocystis neurona", "read-out": "parasite growth", "tested at": "10 µM", "time": "96 h", "setting": "first screen"}
{"SMILES": "CC(C)(C#N)c1cc(Cn2cncn2)cc(C(C)(C)C#N)c1", "inhibition [%]": 8.1}
{"SMILES": "CCCC1O[C@@H]2C[C@H]3[C@@H]4CCC5=CC(=O)C=C[C@]5(C)[C@H]4[C@@H](O)C[C@]3(C)[C@]2(C(=O)CO)O1 (stereo partly shown)", "inhibition [%]": -26}
{"SMILES": "C#C[C@]1(O)CC[C@H]2[C@@H]3CCC4=CC(=O)CC[C@@H]4[C@H]3CC[C@@]21C", "inhibition [%]": -14.3}
{"data": "Set 2", "Compound": "CS(=O)(=O)N1CCCC(NC(=O)[C@H](CCC2CCCCC2)NC(=O)c2ccc(CNC(=O)c3cnc4ccccn34)cc2)C1 (stereo partly shown)", "tested at": "0.1 µM"}
{"target": "EGFR (Homo sapiens, UniProt P00533, del746-750)", "test": "cell-free assay, competition with immobilised ligand", "remaining binding [%]": 66}
{"target": "PRKAA1 (Homo sapiens, UniProt Q13131)", "test": "cell-free assay, competition with immobilised ligand", "remaining binding [%]": 100}
{"target": "ROS1 (Homo sapiens, UniProt P08922)", "test": "cell-free assay, competition with immobilised ligand", "remaining binding [%]": 100}
{"target": "MARK3 (Homo sapiens, UniProt P27448)", "test": "cell-free assay, competition with immobilised ligand", "remaining binding [%]": 74}
{"target": "EPHA2 (Homo sapiens, UniProt P29317)", "test": "cell-free assay, competition with immobilised ligand", "remaining binding [%]": 100}
{"target": "NTRK1 (Homo sapiens, UniProt P04629)", "test": "cell-free assay, competition with immobilised ligand", "remaining binding [%]": 100}
{"target": "MAP3K13 (Homo sapiens, UniProt O43283)", "test": "cell-free assay, competition with immobilised ligand", "remaining binding [%]": 74}
{"target": "CDK19 (Homo sapiens, UniProt Q9BWU1)", "test": "competition binding", "remaining binding [%]": 100}
{"target": "Non-receptor tyrosine-protein kinase TYK2, JH1 (TYK2, Homo sapiens, UniProt P29597)", "test": "cell-free assay, competition with immobilised ligand", "remaining binding [%]": 84}
{"target": "FRK (Homo sapiens, UniProt P42685)", "test": "cell-free assay, competition with immobilised ligand", "remaining binding [%]": 77}
{"target": "TYRO3 (Homo sapiens, UniProt Q06418)", "test": "cell-free assay, competition with immobilised ligand", "remaining binding [%]": 83}
{"target": "CDC42BPG (Homo sapiens, UniProt Q6DT37)", "test": "competition binding", "remaining binding [%]": 98}
{"target": "LYN (Homo sapiens, UniProt P07948)", "test": "cell-free assay, competition with immobilised ligand", "remaining binding [%]": 100}
{"target": "Ribosomal protein S6 kinase alpha-1, N-terminal kinase domain (RPS6KA1, Homo sapiens, UniProt Q15418)", "test": "cell-free assay, competition with immobilised ligand", "remaining binding [%]": 74}
{"target": "PIK3CA (Homo sapiens, UniProt P42336, M1043I)", "test": "cell-free assay, competition with immobilised ligand", "remaining binding [%]": 37}
{"target": "SYK (Homo sapiens, UniProt P43405)", "test": "cell-free assay, competition with immobilised ligand", "remaining binding [%]": 93}
{"target": "EPHB2 (Homo sapiens, UniProt P29323)", "test": "cell-free assay, competition with immobilised ligand", "remaining binding [%]": 100}
{"target": "RET (Homo sapiens, UniProt P07949)", "test": "cell-free assay, competition with immobilised ligand", "remaining binding [%]": 85}
{"target": "PIK3CA (Homo sapiens, UniProt P42336)", "test": "cell-free assay, competition with immobilised ligand", "remaining binding [%]": 86}
{"target": "Ribosomal protein S6 kinase alpha-5, N-terminal kinase domain (RPS6KA5, Homo sapiens, UniProt O75582)", "test": "cell-free assay, competition with immobilised ligand", "remaining binding [%]": 90}
{"data": "Set 3", "host": "mouse", "matrix": "microsomes or S9", "tested at": "2 µM", "time": "0.5 h"}
{"SMILES": "Cc1ccc(N2C(=O)c3[nH]nc(C)c3C2c2ccc(F)cc2)cc1 (stereo not shown)", "remaining compound [%]": 47.2}
{"SMILES": "CNC(=O)C1CCCC1NC(=O)N1CCOC(C)(c2cnn(C)c2)C1 (stereo not shown)", "remaining compound [%]": 87.8}
{"SMILES": "COCCN(C)C(=O)C1(C)CN(S(C)(=O)=O)CCO1 (stereo not shown)", "remaining compound [%]": 89.5}
{"SMILES": "N#Cc1c(-c2cccs2)cc(=O)[nH]c1SCC(=O)c1ccc(Br)cc1", "remaining compound [%]": 94.1}
{"data": "Set 4", "target": "RING finger protein unkempt homolog, zinc fingers 1-6, GST-SBP tag (UNK, Homo sapiens, UniProt Q9C0B0, residues 30-357)", "method": "RNA Bind-n-Seq", "form": "RNA", "matrix": "in vitro", "tested at": "not given", "setting": "RNA with constant flanks, human and mouse sites, ends assumed", "baseline": "input RNA pool", "direction": "higher = stronger binding", "Residues (chain)": "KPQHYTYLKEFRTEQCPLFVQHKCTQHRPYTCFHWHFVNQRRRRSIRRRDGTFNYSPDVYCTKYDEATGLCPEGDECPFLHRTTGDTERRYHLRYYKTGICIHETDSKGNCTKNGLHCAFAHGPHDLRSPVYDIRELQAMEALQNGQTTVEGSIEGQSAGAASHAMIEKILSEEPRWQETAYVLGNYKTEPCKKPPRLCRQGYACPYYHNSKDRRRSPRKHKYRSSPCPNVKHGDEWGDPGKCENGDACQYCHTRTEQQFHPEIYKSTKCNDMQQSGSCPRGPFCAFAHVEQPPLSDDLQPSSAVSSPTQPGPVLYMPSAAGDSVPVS"}
{"Sequence": "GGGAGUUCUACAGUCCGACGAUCUUUAGGGCUGAACACAGGAUAAAAUGAAAGGAAUUCUUAGGAGCUUGGACCAUACUUGAAGGCUAGAGAGGGUGUGCCAUUGUUAUAAAGGACAUAGUUGGUAUACAUUUUCUGCUUCCACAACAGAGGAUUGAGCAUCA", "bound/input enrichment [ratio]": 0.291}
{"Sequence": "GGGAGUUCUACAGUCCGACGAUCAGCUCUGCCAGGAUGGUGACCGCAGUGCCCGCUGUGUUUUCCAAGCUGGUAACCAUGCUUAAUGCUUCUGGCUCCACCCACUUCACCAGGAUGCGCCGGCGUCUGAUGGCUAUCGCGGAUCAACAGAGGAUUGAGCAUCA", "bound/input enrichment [ratio]": 0.0886}
{"Sequence": "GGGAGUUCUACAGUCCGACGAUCGUAAAUUAAAAUAUAAAUUCAUAUAAAUUCUGAAACCCAUACUUGAACAAUGUGAGGAGAUAGUUAAGGGGGAAAUCAAGGGUAAACUUGAUGUUUUCUACACAUGUUGACAGUAAGUGUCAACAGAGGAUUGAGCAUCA", "bound/input enrichment [ratio]": 3.54}
{"Sequence": "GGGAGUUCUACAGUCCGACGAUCGAAGGACACUGCAACAAUAUACAUUGUUUGGCCAAAGCCAUCAACCAGAUUGCUGCAGCUUUGUUUACAAUUCACAAAGGAAGUAUUGAAGACCGACUUAAGGAAUUCCUGGCGCUUGCACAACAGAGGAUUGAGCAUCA", "bound/input enrichment [ratio]": 0.168}
{"Sequence": "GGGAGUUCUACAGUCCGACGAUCCCCCCUUUUAAAAUCAACAGGAAAUGUUUCAAAGGAGGGAUGAAAUGCUUCUUGGCUUCCUCAGCACUUGGCAAGGUAGACCUCAUAGCAACCUUGAAUAUGACUUUCUUUAGUCUCUAGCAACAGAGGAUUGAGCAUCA", "bound/input enrichment [ratio]": 2.94}
{"Sequence": "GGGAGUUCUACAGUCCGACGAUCUACAGCAACAUUUCACCUGUCCAGAUCCACUGGUACAAUACUUCAAAUCCUUUACCUUAUGAACAUAUGAAGCCAAGCUUUCUCAACCCAGCUAAAGAACCUACCUCAGUUUCAGAGAAUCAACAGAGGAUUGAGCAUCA", "bound/input enrichment [ratio]": 0.185}
{"Sequence": "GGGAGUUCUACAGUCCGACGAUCCUCGGCACUGGUACCCUUUACAUCGCUGAGAGCCGCCUGUCUUGGUUAGAUGGCUCUGGAUUAGGAUUCUCACUGGAAUACCCCACCAUUAGUUUACAUGCAUUAUCCAGGGACCGAAGUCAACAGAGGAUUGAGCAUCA", "bound/input enrichment [ratio]": 3.77}
{"Sequence": "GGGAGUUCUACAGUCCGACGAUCAACGGCGCCCCAGCGUGUGCCCAGAAACUCUAUGCAGAACUGUGCCAGGGCAUCGUGGACAUAGCCAUAUCCAGUGUCUUCCCACCCCCGGACACGGAGCAGGUGCCGCAGCAGCCGGCUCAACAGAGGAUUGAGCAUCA", "bound/input enrichment [ratio]": 0.178}
{"data": "Set 5", "Structure (SMILES)": "COc1cc(C(=O)N2CCC(N3CCN(C)CC3)CC2)ccc1Nc1ncc2c(n1)N(C)c1ccccc1C(=O)N2C"}
{"target": "Mitogen-activated protein kinase kinase kinase 4 (Map3k4, Mus musculus, UniProt O08648)", "test": "KiNativ profiling", "test system": "mouse brain lysate", "setting": "1 µM, LYS1 site, with: ADP acyl phosphate probe", "inhibition [%]": -3.8}
{"target": "FES (human)", "test": "probe labelling, KiNativ ATP probe", "test system": "human PBMC lysate", "setting": "concentration not given, LYS1 labelled site", "inhibition [%]": 6.3}
{"target": "SYK human", "test": "KiNativ profiling", "test system": "human PBMC", "setting": "0.1 µM, DFG motif site, with: ATP acyl phosphate probe", "inhibition [%]": 3.2}
{"data": "Set 6", "Structure (SMILES)": "CC(C)n1cnc(-c2ccc(F)cc2)c1-c1ncc(C(=O)Nc2ccc(N3CCN(C)CC3)cc2)[nH]1", "host": "human, idiopathic pulmonary fibrosis"}
{"setting": "30 mg twice daily, trial, without standard of care", "AE leading to discontinuation": "30%"}
{"test": "refers to: acute appendicitis", "setting": "30 mg once daily, trial", "AE leading to discontinuation": "5.6%"}
{"test": "refers to: liver injury", "setting": "60 mg once daily, trial", "AE leading to discontinuation": "5.6%"}
{"data": "Set 7", "target": "Beta-1 adrenergic receptor (ADRB1, Homo sapiens, UniProt P08588)", "action": "antagonist", "chain of UniProt P08588 (whole entry, looked up)": "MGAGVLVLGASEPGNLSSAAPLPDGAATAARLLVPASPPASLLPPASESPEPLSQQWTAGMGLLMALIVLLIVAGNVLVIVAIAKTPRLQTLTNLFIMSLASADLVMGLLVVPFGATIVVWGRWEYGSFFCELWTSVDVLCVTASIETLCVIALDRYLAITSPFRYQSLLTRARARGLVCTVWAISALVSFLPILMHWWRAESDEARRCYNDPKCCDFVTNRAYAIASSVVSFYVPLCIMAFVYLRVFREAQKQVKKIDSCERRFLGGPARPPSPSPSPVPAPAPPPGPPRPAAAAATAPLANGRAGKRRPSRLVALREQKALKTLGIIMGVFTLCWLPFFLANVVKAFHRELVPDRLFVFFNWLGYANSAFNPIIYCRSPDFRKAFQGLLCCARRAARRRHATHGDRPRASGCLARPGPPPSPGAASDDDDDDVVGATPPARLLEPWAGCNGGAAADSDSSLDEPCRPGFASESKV"}
{"SMILES": "CC(=O)Oc1ccc2c(c1)Oc1cc(OC(C)=O)ccc1C21OC(=O)c2cc(C(=O)O)ccc21", "IC50 [µM]": "≥ 100"}
{"SMILES": "CN1Cc2ccc(N3CCOCC3)nc2C(C)(C(=O)NCCCn2ccnc2)C1 (stereo not shown)", "IC50 [µM]": "≥ 100"}
{"SMILES": "Cc1cc(F)ccc1-c1n[nH]c2ncc(-c3ccccc3)nc12", "IC50 [µM]": 35.5}
{"SMILES": "COc1ccccc1N1CCN(C(=O)C[C@@H]2O[C@H](CNC(=O)NC(C)C)[C@@H](O)[C@H]2O)CC1", "IC50 [µM]": 7.08}
{"data": "Mixed results"}
{"Structure (SMILES)": "CC(C)S(=O)(=O)c1cc2c(Nc3ccc4sc(C5CCCC5)nc4c3)ccnc2cc1OCCO", "target": "Receptor-interacting serine/threonine-protein kinase 3 (RIPK3, Homo sapiens, UniProt Q9Y572)", "test": "kinase activity, inhibitor, ADP-Glo", "setting": "150 nM, 1 h", "endpoint": "inhibition", "result": "101%"}
{"note": "Excerpt of the above (set 3):"}
{"SMILES": "N#Cc1c(-c2cccs2)cc(=O)[nH]c1SCC(=O)c1ccc(Br)cc1", "remaining compound [%]": 94.1}
{"SMILES": "CNC(=O)C1CCCC1NC(=O)N1CCOC(C)(c2cnn(C)c2)C1 (stereo not shown)", "remaining compound [%]": 87.8}
{"SMILES": "Cc1ccc(N2C(=O)c3[nH]nc(C)c3C2c2ccc(F)cc2)cc1 (stereo not shown)", "remaining compound [%]": 47.2}
{"SMILES": "COCCN(C)C(=O)C1(C)CN(S(C)(=O)=O)CCO1 (stereo not shown)", "remaining compound [%]": 89.5}
